{"data": "Assay results of several laboratories", "note": "Each line is one published result; not all experiments were run side by side. ± marks the error that the study gave."}
{"Structure (SMILES)": "Cc1c(OCC(F)(F)F)ccnc1C[S+]([O-])c1nc2ccccc2[nH]1 (stereo not drawn)", "system": "human, plasma", "conditions": "oral, dose not given, median", "endpoint": "CL, body weight adjusted", "value": "3.33 mL/min/kg"}
{"Structure (SMILES)": "CC(C)(C(=O)N1CCOc2c(C#N)cncc2C1)C(F)F", "system": "human, both sexes", "conditions": "oral, 30 mg single dose", "endpoint": "subjects with tachycardia TEAE", "value": "0%"}
{"Structure (SMILES)": "CC#CC(=O)N[C@H]1CCCN(c2c(F)cc(C(N)=O)c3[nH]c(C)c(C)c23)C1", "system": "healthy volunteers", "conditions": "oral, 0.3 mg single dose, SAD phase I", "endpoint": "adverse events", "value": "66.7%"}
{"Structure (SMILES)": "CC(=O)N[C@@H](CNC(=O)c1cc(NC(=O)c2cc(NC(=O)c3nc(NC(=O)c4nccn4C)cn3C)cn2C)cn1C)CC(=O)Nc1cc(C(=O)Nc2cc(C(=O)Nc3cc(C(=O)Nc4cc(C(=O)NCCCN(C)CCCNC(=O)c5cccc(C(=O)O)c5)n(C)c4)n(C)c3)n(C)c2)n(C)c1", "assay": "dynamic light scattering", "system": "0.1% DMSO in PBS", "conditions": "4 µM, 10 min, 25 °C", "endpoint": "aggregate hydrodynamic radius", "value": "100 ± 1 nm"}
{"Structure (SMILES)": "O=C(Nc1cnccc1Cl)N1CCN(Cc2ccc3c(c2)OC(F)(F)O3)CC1", "assay": "measured: Somnolence", "system": "healthy elderly humans", "conditions": "100 mg once daily, 10 days", "endpoint": "volunteers with adverse event", "value": "0%"}
{"Structure (SMILES)": "Cc1ccc(N(C)C(=O)/C=C/c2ccco2)cc1", "assay": "cold plate test", "system": "mice", "conditions": "oral, 30 mg/kg single, 0 min", "endpoint": "licking latency", "value": "18.8 ± 0.5 s"}
{"Structure (SMILES)": "OC[C@H]1O[C@@H](c2ccc(Cl)c(Cc3ccc(O[C@H]4CCOC4)cc3)c2)[C@H](O)[C@@H](O)[C@@H]1O", "system": "Japanese type 1 diabetes patients, blood", "conditions": "2.5 mg, day 28", "how to read": "relative to: baseline", "endpoint": "change in uric acid", "value": "-0.49 µmol/L"}
{"Structure (SMILES)": "CC(=O)N[C@H]1[C@H]([C@H](O)[C@H](O)CO)OC(C(=O)O)=C[C@@H]1N=C(N)N", "assay": "HPLC", "system": "HBSS", "conditions": "0.1 µg/mL, 36 h, room temperature, short-term stability", "endpoint": "recovery", "value": "95.7%"}
{"Structure (SMILES)": "C[C@@H]1CN(c2c(F)c(N)c3c(=O)c(C(=O)O)cn(C4CC4)c3c2F)C[C@H](C)N1", "system": "male Hartley guinea pigs, anaesthetized", "conditions": "intravenous, 30 mg/kg over 10 min, after infusion", "endpoint": "heart rate", "value": "197 ± 0.6 beats/min"}
{"Structure (SMILES)": "O=C(N[C@H](Cc1c[nH]c2ccccc12)C(=O)Nc1ccncc1)c1ccc(N2CCN(c3ccc(F)cc3F)CC2)cc1F", "system": "Swiss Webster mouse, female, plasma", "conditions": "oral, 50 mg/kg, 2 h, 20% Kolliphor vehicle", "endpoint": "concentration", "value": "4.37 µM"}
{"Structure (SMILES)": "CCN1/C(=C/C(C)=O)Sc2ccc(F)cc21", "system": "cynomolgus monkey", "conditions": "oral, 10 mg/kg, 2 h post-dose", "endpoint": "QT interval", "value": "239 ± 23 ms"}
{"Structure (SMILES)": "CCN1CCN(Cc2ccc(Nc3ncc(F)c(-c4cc(F)c5nc6n(c5c4)[C@H](C)CCC6)n3)nc2)CC1", "system": "human, Phase Ib patients, plasma", "conditions": "400 mg, multiple doses, mean, added: fulvestrant", "endpoint": "AUC(0-tau)", "value": "8340 ng·h/mL"}
{"Structure (SMILES)": "O=c1c(O)c(-c2cc(O)c(O)c(O)c2)oc2cc(O)cc(O)c12", "system": "human CSF", "conditions": "concentration not given, mean", "endpoint": "CSF concentration", "value": "not detected"}
{"Structure (SMILES)": "COc1ccc2c(=O)n(C)c(-c3ccccc3)nc2c1", "system": "Sprague-Dawley rat, male, small intestine", "conditions": "oral, 30 mg/kg, 0.5 h", "how to read": "relative to: small intestine over plasma", "endpoint": "tissue/plasma ratio", "value": 7350}
{"Structure (SMILES)": "CO[C@H]1/C=C/O[C@@]2(C)Oc3c(C)c(O)c4c(O)c(c(/C=N/N5CCN(C)CC5)c(O)c4c3C2=O)NC(=O)/C(C)=C\\C=C\\[C@H](C)[C@H](O)[C@@H](C)[C@@H](O)[C@@H](C)[C@H](OC(C)=O)[C@@H]1C", "system": "healthy human volunteers", "conditions": "oral, 600 mg, itraconazole cohort, added: gepotidacin 1500 mg", "endpoint": "incidence of nervous system disorders", "value": "6%"}
{"Structure (SMILES)": "CC(C(=O)NCC(=O)NCC(CNC(=O)CNC(=O)C(C)N1CCN(CC(=O)[O-])CCN(CC(=O)[O-])CCN(CC(=O)[O-])CC1)(CNC(=O)CNC(=O)C(C)N1CCN(CC(=O)[O-])CCN(CC(=O)[O-])CCN(CC(=O)[O-])CC1)CNC(=O)CNC(=O)C(C)N1CCN(CC(=O)[O-])CCN(CC(=O)[O-])CCN(CC(=O)[O-])CC1)N1CCN(CC(=O)[O-])CCN(CC(=O)[O-])CCN(CC(=O)[O-])CC1.[Gd+3].[Gd+3].[Gd+3].[Gd+3] (stereo not drawn)", "assay": "ICP-MS", "system": "cynomolgus monkey", "conditions": "dose not given, 57 58 d, PK group", "how to read": "relative to: dose", "endpoint": "urinary excretion", "value": "0.01%"}
{"Structure (SMILES)": "CNC(=O)c1ccc(-c2cnc3ncc(Cc4ccc5ncccc5c4)n3n2)cc1F", "system": "Japanese patients", "conditions": "oral, 400 mg, grade 3/4", "endpoint": "AST increased dose reduction/interruption", "value": "2%"}
{"Structure (SMILES)": "CCC(C)n1ncn(-c2ccc(N3CCN(c4ccc(OCC5COC(Cn6cncn6)(c6ccc(Cl)cc6Cl)O5)cc4)CC3)cc2)c1=O (stereo not drawn)", "system": "human, plasma", "conditions": "oral, dose not given, day 12 predose, mean", "endpoint": "trough plasma concentration", "value": "72.2 ng/mL"}
{"Structure (SMILES)": "[18F]c1ccc(-c2ccc3c(c2)[nH]c2ccncc23)cn1", "assay": "ex vivo biodistribution", "system": "APP/PS1 Alzheimer mice, adipose", "conditions": "intravenous, 30 min", "endpoint": "uptake", "value": "0.206 ± 0.069 SUV"}
{"Structure (SMILES)": "CNC(=O)c1cc(Oc2ccc(NC(=O)Nc3cc(C(C)(C)C)nn3-c3ccc4ncccc4c3)c(F)c2)ccn1", "assay": "measured: worst grade 3", "system": "human", "conditions": "oral, dose not given, cycles 1 and 2, Low AUC(0-4 h) subgroup", "endpoint": "patients with any AE of special interest", "value": "7%"}
{"Structure (SMILES)": "C=CC(=O)NC1CCN(c2ncc3ncnc(Nc4ccc(Oc5ccc6c(c5)ncn6C)c(C)c4)c3n2)CC1", "system": "healthy male humans", "conditions": "oral, 240 mg", "endpoint": "participants with treatment-related AE", "value": "31.3%"}
{"Structure (SMILES)": "CCOc1c([C@H](C)n2nc(C)c3c(N)ncnc32)cc(Cl)c(F)c1[C@@H]1CNC(=O)C1", "system": "human, indolent lymphoma, plasma", "conditions": "oral, 30 mg, day 15, geometric mean", "endpoint": "AUC(0-tau)", "value": "24.1 µM·h"}
{"Structure (SMILES)": "C=CCn1c(=O)c2cnc(Nc3ccc(N4CCN(C)CC4)cc3)nc2n1-c1cccc(C(C)(C)O)n1", "system": "human", "conditions": "oral, 150 mg twice daily, cycle 1 day 17, added: durvalumab 1500 mg IV", "how to read": "geometric mean", "endpoint": "AUC(0-t)", "value": "4.88 µM·h"}
{"Structure (SMILES)": "O=C(O)c1ccc(O)cc1O", "system": "human CSF", "conditions": "concentration not given, mean", "endpoint": "CSF concentration", "value": "not detected"}
{"Structure (SMILES)": "CCC(=O)N(CCC(c1ccc2c(c1)OCO2)c1ccccc1OC)Cc1ccccc1 (stereo not drawn)", "system": "female athymic nude mouse, blood", "conditions": "i.p., 60 mg/kg twice daily, 14 days, group mean", "endpoint": "MCHC", "value": "33.8 g/dL"}
{"Structure (SMILES)": "CN1C(=O)[C@@H](NC(=O)c2nnc(Cc3ccccc3)[nH]2)COc2cccnc21", "assay": "phase I single ascending dose", "system": "human, male and female", "conditions": "oral, 400 mg, fasted", "endpoint": "participants with any AE of special interest", "value": "0%"}
{"Structure (SMILES)": "C=CC(=O)NC1CCN(c2ncc3ncnc(Nc4ccc(Oc5ccc6c(c5)ncn6C)c(C)c4)c3n2)CC1", "assay": "measured: total radioactivity", "system": "healthy male volunteers, plasma", "conditions": "intravenous, 100 µg, 14C microtracer, geometric mean", "endpoint": "AUC(0-tz)", "value": "0.00301 µM·h"}
{"Structure (SMILES)": "C[C@@H](NC(=O)N1C(=O)[C@H](Cc2ccnc(N)c2)[C@H]1C(=O)O)C1CCCCC1", "assay": "UPLC-MS/MS", "system": "healthy adult Chinese volunteers, plasma", "conditions": "continuous intravenous infusion, 0.3 mg/kg/h, day 1 of 5-day infusion, median", "endpoint": "time to steady state", "value": "1.5 h"}
{"Structure (SMILES)": "Cc1ccc([C@@H]2O[C@H](CO)[C@@H](O)[C@H](O)[C@H]2O)cc1Cc1ccc(-c2ccc(F)cc2)s1", "system": "Japanese type 2 diabetes patients", "conditions": "400 mg, day 18, 24 h urine collection", "how to read": "relative to: baseline", "endpoint": "urinary calcium excretion change", "value": "-11.1 mg"}
{"Structure (SMILES)": "CCCCc1oc2ccccc2c1C(=O)c1cc(I)c(OCCN(CC)CC)c(I)c1", "system": "male Hartley guinea pigs, anaesthetized", "conditions": "intravenous, 20 mg/kg group, baseline before infusion", "endpoint": "heart rate", "value": "231 ± 0.7 beats/min"}
{"Structure (SMILES)": "CN(C(=O)n1cnc(-c2cccnc2)c1)C1CCCCC1", "system": "Wistar rat, midbrain", "conditions": "oral, 10 mg/kg/day of BIA 10-2474, 72 h, repeated 5 days", "endpoint": "concentration", "value": "8.9 ± 0.2 ng/g"}
{"Structure (SMILES)": "C=CC(=O)N1CCC(Oc2cc3c(Nc4ccc(Cl)c(Cl)c4F)ncnc3cc2OC)CC1", "system": "Sprague-Dawley rat, male, plasma", "conditions": "oral, 2 mg/kg, 1 weeks pretreatment, added: Schisandrin B 20 mg/kg daily pretreatment", "endpoint": "MRT(0-t)", "value": "4.49 ± 0.52 h"}
{"Structure (SMILES)": "C[C@@H](Nc1cc(F)cc(F)c1)c1cc(C(=O)N(C)C)cc2c(=O)cc(N3CCOCC3)oc12", "system": "human", "conditions": "oral, 120 mg twice daily, pooled, geometric LSM, added: abiraterone 1000 mg", "endpoint": "AUC(tau)", "value": "4410 ng·h/mL"}
{"Structure (SMILES)": "O=C(COc1ccc(Cl)cc1)NC12CC(c3nnc([C@H]4C[C@@H](OC(F)(F)F)C4)o3)(C1)C2", "system": "human both sexes", "conditions": "oral, 200 mg once daily, 14 days", "endpoint": "participants with headache", "value": "28.6%"}
{"Structure (SMILES)": "CC(C)(C)c1ccc(C(O)CCCN2CCC(C(O)(c3ccccc3)c3ccccc3)CC2)cc1 (stereo not drawn)", "system": "male Hartley guinea pigs, anaesthetized", "conditions": "intravenous, 0.3 mg/kg over 10 min, after infusion", "endpoint": "heart rate", "value": "209 ± 0.1 beats/min"}
{"Structure (SMILES)": "Cl.[2H]C([2H])([2H])CC(=O)c1cnc(NC(=O)C2CC2)cc1Nc1cccc(-c2ncn(C([2H])([2H])[2H])n2)c1OC", "assay": "median", "system": "human", "conditions": "oral, 10 mg single dose, fasted, liquid", "endpoint": "Tmax", "value": "0.88 h"}
{"note": "Repeated from above:"}
{"Structure (SMILES)": "C=CC(=O)NC1CCN(c2ncc3ncnc(Nc4ccc(Oc5ccc6c(c5)ncn6C)c(C)c4)c3n2)CC1", "assay": "measured: total radioactivity", "system": "healthy male volunteers, plasma", "conditions": "intravenous, 100 µg, 14C microtracer, geometric mean", "endpoint": "AUC(0-tz)", "value": "0.00301 µM·h"}
{"Structure (SMILES)": "Cc1c(OCC(F)(F)F)ccnc1C[S+]([O-])c1nc2ccccc2[nH]1 (stereo not drawn)", "system": "human, plasma", "conditions": "oral, dose not given, median", "endpoint": "CL, body weight adjusted", "value": "3.33 mL/min/kg"}
{"Structure (SMILES)": "Cc1ccc(N(C)C(=O)/C=C/c2ccco2)cc1", "assay": "cold plate test", "system": "mice", "conditions": "oral, 30 mg/kg single, 0 min", "endpoint": "licking latency", "value": "18.8 ± 0.5 s"}
{"Structure (SMILES)": "CC(=O)N[C@@H](CNC(=O)c1cc(NC(=O)c2cc(NC(=O)c3nc(NC(=O)c4nccn4C)cn3C)cn2C)cn1C)CC(=O)Nc1cc(C(=O)Nc2cc(C(=O)Nc3cc(C(=O)Nc4cc(C(=O)NCCCN(C)CCCNC(=O)c5cccc(C(=O)O)c5)n(C)c4)n(C)c3)n(C)c2)n(C)c1", "assay": "dynamic light scattering", "system": "0.1% DMSO in PBS", "conditions": "4 µM, 10 min, 25 °C", "endpoint": "aggregate hydrodynamic radius", "value": "100 ± 1 nm"}
